Experimental data of several laboratories.
Compare with care: the assays were run in different laboratories. ± gives the spread as reported.

CC1=N/C(=C\c2cc(F)c(O)c(F)c2)C(=O)N1CCOCCNC(=O)OC(C)(C)C  molar extinction coefficient (pH 7.5): 33800 ± 500 M⁻¹ cm⁻¹
COC(=O)c1ccccc1-c1c2ccc(=O)cc-2oc2c1ccc1cccc(O)c12  molar extinction coefficient (12.5 mM aqueous NaOH; pH 12.1, 10% DMSO): 8610 M⁻¹ cm⁻¹
CCCCN1C(=O)c2cccc3c(NCCCCCCN4CCOCC4)ccc(c23)C1=O  molar extinction coefficient (acetonitrile): 13700 M⁻¹ cm⁻¹
COC(=O)c1ccccc1-c1c2ccc(=[N+](C)C)cc-2oc2c1ccc1cccc(O)c12  molar extinction coefficient (12.5 mM aqueous NaOH; pH 12.1, 10% DMSO): 17300 M⁻¹ cm⁻¹
CCCCN1C(=O)c2cccc3c(NCCCCCCCCCCN4CCOCC4)ccc(c23)C1=O  molar extinction coefficient (toluene): 12700 M⁻¹ cm⁻¹
COc1cccc(Cc2cc(CCC(=O)NCCNc3cccc4c(S(=O)(=O)O)cccc34)nn(CC(=O)Nc3ccc(Br)cc3)c2=O)c1  molar extinction coefficient (methanol): 4600 M⁻¹ cm⁻¹
[2H]C([2H])([2H])C1(C([2H])([2H])[2H])NC(=O)N(c2ccc(F)c(C(C)(F)F)c2)C1=O  molar extinction coefficient (wavelength 270-900 nm): < 1000 M⁻¹ cm⁻¹
CCCCN1C(=O)c2cccc3c(NCCCCN4CCOCC4)ccc(c23)C1=O  molar extinction coefficient (dichloromethane): 7900 M⁻¹ cm⁻¹
COc1cccc(Cc2cc(CCC(=O)NC3=C(C)C4=C(C)c5c(C)cc(C)n5[B-](F)(F)[N+]4=C3C)nn(CC(=O)Nc3ccc(Br)cc3)c2=O)c1  molar extinction coefficient (methanol): 74400 M⁻¹ cm⁻¹
CC1=N/C(=C\c2cc(F)c(O)c(F)c2)C(=O)N1CCOCCOCCNC(=O)OC(C)(C)C  molar extinction coefficient (pH 7.5): 40000 ± 1000 M⁻¹ cm⁻¹

Repeated from above:
COc1cccc(Cc2cc(CCC(=O)NCCNc3cccc4c(S(=O)(=O)O)cccc34)nn(CC(=O)Nc3ccc(Br)cc3)c2=O)c1  molar extinction coefficient (methanol): 4600 M⁻¹ cm⁻¹
